Results of several laboratories.
± gives the spread as reported.
kasA: 3-oxoacyl-[acyl-carrier-protein] synthase 1 (kasA, Mycobacterium tuberculosis, UniProt P9WQD9)

The ΔTm of CCCc1nn(C)c2c(=O)[nH]c(-c3cc(S(=O)(=O)N4CCN(C)CC4)ccc3OCC)nc12 is reported as 6.66 °C (kasA; thermal stabilization, nanoDSF; 100 µM).
For CC[C@H](C)[C@H](NC(=O)CNC(=O)[C@@H](N)CCCCN)C(=O)N[C@@H](CC(C)C)C(=O)N[C@@H](CCCCN)C(=O)N[C@@H](CCCNC(=N)N)C(=O)N[C@@H](CCC(=O)O)C(=O)N[C@@H](CCCCN)C(=O)N[C@@H](CCCNC(=N)N)C(=O)N[C@@H](CC(C)C)C(=O)N[C@@H](CCCNC(=N)N)C(=O)N[C@@H](CCCNC(=N)N)C(=O)N[C@@H](CCCCN)C(=O)N[C@@H](CC(N)=O)C(=O)N[C@H](C(=O)N[C@@H](Cc1c[nH]cn1)C(=O)N[C@@H](Cc1c[nH]c2ccccc12)C(=O)N1CCC[C@H]1C(=O)N[C@@H](CCC(=O)O)C(=O)N[C@@H](CCC(=O)O)C(=O)NCC(=O)N[C@@H](CCCCN)C(=O)N[C@@H](CC(C)C)C(=O)N[C@@H](CCCNC(=N)N)C(=O)N[C@@H](CCC(=O)O)C(=O)N[C@@H](Cc1ccccc1)C(=O)N[C@@H](Cc1ccccc1)C(=O)N[C@@H](Cc1ccccc1)C(=O)N[C@@H](Cc1ccccc1)C(=O)N[C@@H](CCC(=O)O)C(=O)N[C@@H](CC(C)C)C(=O)N[C@@H](CC(=O)O)C(=O)N[C@@H](CCC(=O)O)C(=O)N[C@@H](C)C(=O)N[C@@H](CCC(=O)O)C(=O)N[C@@H](CCCNC(=N)N)C(=O)N[C@H](C(=O)N[C@@H](CC(N)=O)C(=O)N[C@H](C(=O)O)C(C)C)C(C)C)C(C)C, “log2 fold change” read -7.97 (HeLa and HEK-293T cells; phosphatase bead binding, competitive inhibitor, PIB pulldown LC-MS/MS, measured: KNL1; concentration not given; relative to: untreated control).
The inhibition of COc1ccc(N2C(=O)N(c3c(C)cccc3Cl)Cc3cnc(Nc4ccc(C5CCN(C)CC5)cc4OC)nc32)nc1 is reported as 6% (SGK3 (Homo sapiens, UniProt Q96BR1); kinase activity; 0.5 µM).
COc1cc(Nc2ncc(F)c(Nc3ccc4c(n3)NC(=O)C(C)(C)O4)n2)cc(OC)c1OC has an IC50 of greater than 10000 nM (VIPR1 (Homo sapiens, UniProt P32241)).
With CCc1nc2ccc(Cl)cn2c1C(=O)N1CC(CC(N)=O)C1 the ΔTm was -0.21 °C (kasA; thermal stabilization, nanoDSF; 100 µM).
CC[C@H](C)[C@@H]1NC(=O)[C@@H]2CCCN2C(=O)[C@H](CC(C)C)NC(=O)[C@H](CC(C)C)NC(=O)CNC(=O)[C@@H](NC(=O)[C@@H](NC(=O)[C@H](CC(=O)O)NC(=O)CNC(=O)[C@@H](NC(=O)[C@H](C)NC(=O)CNC(=O)[C@H](CCCCN)NC(=O)[C@H](CC(C)C)NC(=O)[C@H](CC(C)C)NC(=O)[C@H](CCCCN)NC(=O)CNC(=O)[C@@H](NC(=O)[C@@H](N)CC(C)C)C(C)C)C(C)C)C(C)C)CSSC[C@@H](C(=O)O)NC1=O: “log2 fold change” -2.01 (RNA-seq, measured: Adgre5; mouse, traumatic brain injury model, frontal cortex and hippocampus; dose not given; relative to: TBI alone).
COc1cc2c(Oc3ccc4[nH]c(C)cc4c3F)ccnc2cc1OCC1(N)CC1: “grade 3 Headache” 0% (paediatric recurrent refractory sarcoma; 12 mg).
The remaining binding of [2H]c1c([2H])c([C@]2([2H])CCCN2C(=O)C(C)(C)Oc2ccc3cn[nH]c3c2)c([2H])c([2H])c1C([2H])([2H])[2H] is reported as 100% (NEK10 (Homo sapiens, UniProt Q6ZWH5); KINOMEscan; 1 µM; relative to: DMSO control).
For CCN(CC)CCNC(=O)c1cc(Cl)c(N)cc1OC, the ΔTm was 0.02 °C (kasA; thermal stabilization, nanoDSF; 100 µM).
CC[C@H](C)[C@H](NC(=O)[C@H](Cc1ccccc1)NC(=O)[C@H](CCC(=O)O)NC(=O)[C@H](CCCNC(=N)N)NC(=O)[C@H](C)NC(=O)[C@H](C)NC(=O)[C@H](CCC(N)=O)NC(=O)[C@H](CCC(=O)O)NC(=O)[C@H](CCC(=O)O)NC(=O)[C@H](CC(C)C)NC(=O)[C@H](Cc1ccc(O)cc1)NC(=O)[C@H](CO)NC(=O)[C@H](CO)NC(=O)[C@@H](NC(=O)[C@H](CC(=O)O)NC(=O)[C@H](CO)NC(=O)[C@@H](NC(=O)[C@H](Cc1ccccc1)NC(=O)[C@@H](NC(=O)CNC(=O)[C@H](CCC(=O)O)NC(=O)[C@H](C)NC(=O)CCc1c[nH]cn1)[C@@H](C)O)[C@@H](C)O)C(C)C)C(=O)N[C@@H](C)C(=O)N[C@@H](Cc1c[nH]c2ccccc12)C(=O)N[C@@H](CC(C)C)C(=O)N[C@H](C(=O)N[C@@H](CCCNC(=N)N)C(=O)NCC(=O)N[C@@H](CCCNC(=N)N)C(=O)N[C@@H](CCCCNC(=O)COCCOCCNC(=O)COCCOCCNC(=O)CC[C@H](NC(=O)CCCCCCCCCCCCCCCCC(=O)O)C(=O)O)C(=O)NCC(=O)NCC(=O)N[C@@H](CO)C(=O)N[C@@H](CCCCNc1c(NCCCCCN(O)C(=O)CCC(=O)NCCCCCN(O)C(=O)CCC(=O)NCCCCCN(O)C(C)=O)c(=O)c1=O)C(=O)O)C(C)C [zirconium-89 labelled] has a tissue uptake of 0.13 %ID/g (gamma counting; rat, stomach-duodenum content; intravenous, 3 nmol/kg, 4 h).
For C[C@@H](O)[C@@H](CO)NC(=O)[C@@H](CCCNC(=N)N)NC(=O)[C@@H]1CCCN1C(=O)[C@@H]1CSSC[C@H](NC(=O)[C@H](Cc2ccccc2)NC(=O)CN2CCN(CC(=O)O)CCN(CC(=O)O)CCN(CC(=O)O)CC2)C(=O)N[C@@H](Cc2ccc(O)cc2)C(=O)N[C@@H](Cc2ccccc2)C(=O)N[C@@H](CCC(N)=O)C(=O)N[C@@H](CC(N)=O)C(=O)N1 [gallium-68 labelled], the tissue uptake was 0.49 %ID/g (Wistar rat, healthy, Pituitary gland; intravenous, 8 MBq, 60 min).
The Emax of C[C@]12CC[C@@H](O)C[C@@H]1CC[C@@H]1[C@@H]2CC[C@]2(C)[C@@H]([N+](=O)[O-])CC[C@@H]12 is reported as 98 ± 6% ([3H]flunitrazepam binding, positive modulator; rat cerebral cortex homogenate; relative to: allopregnanolone Emax).
CN1CCN(c2cc(-c3ccncc3)c(-c3ccc4ccccc4c3)nn2)CC1 gave an inhibition of -4.8% (FFAR2 (Homo sapiens, UniProt O15552); antagonist, FLIPR; 10 µM).
The viability of CCCCCCCCCCCCCCCC(=O)OCC(CSC[C@H](N)C(=O)N[C@@H](CO)C(=O)N[C@@H](CCCCN)C(=O)N[C@@H](CCCCN)C(=O)N[C@@H](CCCCN)C(=O)N[C@@H](CCCCN)C(=O)Nc1ccc(Cn2c(O)nc3c(N)nc(NCCCC)nc32)cc1)OC(=O)CCCCCCCCCCCCCCC (stereo partly shown) is reported as 95.4% (HFF-1; 0.1 µg/mL, 48 h).
Nc1c(Br)cc(Br)cc1CN[C@H]1CC[C@H](O)CC1 gave an IC30 of 2990 nM (Voltage-dependent P/Q-type calcium channel subunit alpha-1A (Homo sapiens, UniProt O00555); ion current, antagonist, automated patch clamp).
For O=C(Nc1cccnn1)N1CCC(=Cc2cccc(Oc3ccc(C(F)(F)F)cn3)c2)CC1, the inhibition was 1% (PRKD2 (Homo sapiens, UniProt Q9BZL6); kinase activity, inhibitor; 50 µM, human, added: MAPKAPK substrate).
O=C(c1ccc(Cl)cc1)N1CCN2C(=O)N(OC(=O)N3CCOc4ccccc43)C(=O)C2C1 (stereo not shown) gave a median ratio of 1.15 (Carboxylesterase 3 (CES3, Homo sapiens, UniProt Q6UWW8); enzyme activity, inhibitor, MS-based ABPP; SW-620 in situ; 10 µM, 2 h, 37 °C; relative to: compound over DMSO, lower = stronger inhibition).
COCCn1ncc2ccc(NS(=O)(=O)c3ccc4c(c3)CCC4)cc21 has a ΔTm of 0.15 °C (kasA; thermal stabilization, nanoDSF; 100 µM).
For C[C@H]1CN(c2n[nH]c3nc(N[C@H]4CC[C@H](NS(=O)(=O)CCC(F)(F)F)CC4)ncc23)CCO1, the relative abundance was 1.14 (ATP1A1 (Homo sapiens, UniProt P05023); inhibitor, Kinobeads competition profiling; 20 µM; relative to: vehicle).
Oc1ccc2c3c1O[C@H]1[C@@H](O)CC[C@@]4(O)[C@@H](C2)N(CC2CCC2)CC[C@]314 — result for “log2 fold change”: -0.115 (G-protein coupled receptor 87 (GPR87, Homo sapiens, UniProt Q9BY21); β-arrestin recruitment, TANGO luminescence, measured: GPR87; concentration not given; relative to: basal luminescence).
The tumour uptake of CC(C)C[C@@H]1NC(=O)[C@H](CC(C)C)NC(=O)[C@H](Cc2c[nH]c3ccccc23)NC(=O)[C@H](CO)NC(=O)[C@H](Cc2c[nH]c3ccccc23)NC(=O)[C@@H]2CCCN2C(=O)[C@H](CC(C)C)NC(=O)[C@H](Cc2c[nH]cn2)NC(=O)[C@@H]2CCCN2C(=O)[C@H](CC(N)=O)NC(=O)[C@H](C)NC(=O)[C@H](Cc2ccc(O)cc2)NC(=O)[C@H](CS)NC(=O)[C@H](CCCCNC(=O)CN2CCN(CC(=O)O)CCN(CC(=O)O)CCN(CC(=O)O)CC2)NC1=O [lutetium-177 labelled] is reported as 4.79 %ID (BALB/c mice, 4T1 tumour; iv, 3.7 MBq, 96 h, unblocked).
With O=C(Nc1cnccc1Cl)N1CCN(Cc2ccc3c(c2)OC(F)(F)O3)CC1 the inhibition was 15% (IP3 receptor, rat; binding; 10 µM, added: [3H]IP3).

Repeated from above:
The viability of CCCCCCCCCCCCCCCC(=O)OCC(CSC[C@H](N)C(=O)N[C@@H](CO)C(=O)N[C@@H](CCCCN)C(=O)N[C@@H](CCCCN)C(=O)N[C@@H](CCCCN)C(=O)N[C@@H](CCCCN)C(=O)Nc1ccc(Cn2c(O)nc3c(N)nc(NCCCC)nc32)cc1)OC(=O)CCCCCCCCCCCCCCC (stereo partly shown) is reported as 95.4% (HFF-1; 0.1 µg/mL, 48 h).
Oc1ccc2c3c1O[C@H]1[C@@H](O)CC[C@@]4(O)[C@@H](C2)N(CC2CCC2)CC[C@]314 — result for “log2 fold change”: -0.115 (G-protein coupled receptor 87 (GPR87, Homo sapiens, UniProt Q9BY21); β-arrestin recruitment, TANGO luminescence, measured: GPR87; concentration not given; relative to: basal luminescence).
CC[C@H](C)[C@@H]1NC(=O)[C@@H]2CCCN2C(=O)[C@H](CC(C)C)NC(=O)[C@H](CC(C)C)NC(=O)CNC(=O)[C@@H](NC(=O)[C@@H](NC(=O)[C@H](CC(=O)O)NC(=O)CNC(=O)[C@@H](NC(=O)[C@H](C)NC(=O)CNC(=O)[C@H](CCCCN)NC(=O)[C@H](CC(C)C)NC(=O)[C@H](CC(C)C)NC(=O)[C@H](CCCCN)NC(=O)CNC(=O)[C@@H](NC(=O)[C@@H](N)CC(C)C)C(C)C)C(C)C)C(C)C)CSSC[C@@H](C(=O)O)NC1=O: “log2 fold change” -2.01 (RNA-seq, measured: Adgre5; mouse, traumatic brain injury model, frontal cortex and hippocampus; dose not given; relative to: TBI alone).
